Measurements collected from several papers.
Every numbered part comes from another study and shows a few of its results, in no order. Positions count from the first letter of the parent shown.

Series 1 — technique: RNA Bind-n-Seq; molecule type: RNA; sample: in vitro; tested at: 20 nM; setting: 6-mer, flanks averaged, single round; together with: 150 mM KCl; relative to: input library; direction: higher = stronger binding; measurement: 6-mer enrichment (R)
Target: TAR DNA-binding protein 43, full length, His tag (TARDBP, Homo sapiens, UniProt Q13148, residues 1-414)
AGUCCA: 0.63
CAAAUG: 0.722
UCCUCC: 0.563
CCCCCA: 0.692
UCCUGC: 0.608
CAGGCC: 0.879
UACUAG: 0.653
UACUGA: 0.623
UUGCCC: 0.663
CACGUG: 0.936
UUUUCG: 0.626
GAACUA: 0.685
GGCUUG: 1.47
UUCCGA: 0.574
AAUGAA: 0.822
UCCACC: 0.601
GAUUUA: 0.609
AACAGC: 0.7
CGUGUU: 0.796
AGUUGG: 1.27

Series 2 — target: CCNB2, cyclin fold, Cln2 fusion (human); technique: yeast growth competition, sequencing; sample: yeast; setting: weak parent motif; relative to: not given; direction: higher = stronger binding; measurement: normalised enrichment score
Starting sequence: INSM1 docking peptide (human); PKAIRKLHFEDEV
PKAISKLHFEDEV [R5S]: 0.297
PKAIRKLHFEDTV [E12T]: 0.24
PKAIRKLHFEDSV [E12S]: 0.302
PKAIAKLHFEDEV [R5A]: 0.0139
PKACRKLHFEDEV [I4C]: 0.707
PKAIRKLHFECEV [D11C]: 0.585
PKAIRKLHFEQEV [D11Q]: 0.332
PKAWRKLHFEDEV [I4W]: 0.301
PKAIRKLHEEDEV [F9E]: 0.127
PKAIRKLHFEIEV [D11I]: 0.575
PKAIDKLHFEDEV [R5D]: -0.479
PKAIEKLHFEDEV [R5E]: -0.0492
PKAIRKLQFEDEV [H8Q]: 0.455
PKAIRKLHFEYEV [D11Y]: 0.322
PKATRKLHFEDEV [I4T]: 0.265
PAAIRKLHFEDEV [K2A]: 0.116
PKAINKLHFEDEV [R5N]: -0.26
PKAIRKWHFEDEV [L7W]: 0.201
PKAIRKNHFEDEV [L7N]: 0.0128
PKAIRKLHYEDEV [F9Y]: 0.295
PKAIRKLHFEDMV [E12M]: 0.503
PKAIRVLHFEDEV [K6V]: 0.0997
PKFIRKLHFEDEV [A3F]: 0.271
PKAIRKLHFETEV [D11T]: -0.559

Series 3 — technique: RNA Bind-n-Seq; molecule type: RNA; sample: in vitro; tested at: 365 nM; relative to: no-protein control; direction: higher = stronger binding; measurement: RBNS enrichment (R)
Target: RNA binding protein fox-1 homolog 2, RRM domain, GST-SBP tag (RBFOX2, Homo sapiens, UniProt O43251-10, residues 100-194)
Setting: natural RNA segment, single round, ends assumed
All sequences stand within: GGGAGUUCUACAGUCCGACGAUC … UGGAAUUCUCGGGUGCCAA
Construct (chain): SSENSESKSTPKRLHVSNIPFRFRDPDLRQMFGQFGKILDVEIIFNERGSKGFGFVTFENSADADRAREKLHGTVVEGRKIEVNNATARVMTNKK
UGUUGUCCUCCCCUCUAGUCCUUUGUUCCCUUUCUGAGCAUGUGGCCCCUCCCCCGGCUGUGAGGGGCAGCCGCCUUCCUAGGAAAGUGUAAUGCAGGAUCAAGACCACC: 0.745
UUCUGUCACUGUCAGUUAUUUAAUGAGUGUUUUUUCAGGGUCUGUUUUAAGAUCAUUAUUUGAUAGCUGUAGCAUGAAGCAGAGGUUGAUGAUGCCCAUAAUUGCAAGAC: 4.18
AACUGGGCAAUAUGGGUAAAAUUUCCUUUUUUCCCUAAGAAUGAGGUCUUCCAUGUUUGAGGAAAUGUCUUGCACUAUUGCAUAUAUUUUGUGGACACAGAUUUUUGUAG: 1.65
AGUGUUACAUUGAUUCUAAAAUUACAGUGUCCCCAUUAGACAACUAUUUUAGGUGCUGGAGUAUGUUUGAAGAGUGUGCUGGGAAAAAGGAAGCAUUUCUUCAUUGAUUU: 0.401
UUGGCCCUGCAGGCCAGCUGUUUUAAUAAAGUGGGCACAUUCCCUCAUUUGGUGCCUUUUGUUAGGACUCUGUUGUCAUUCAUUUCAUUAGGUGACUUGUGGGCACUGUC: 0.737
UGUCAGCUCAUUUCUAAGAUGCCUUCAGAGAUCUGAGACAUGACAUUAAGAAUGGAGUAGUAACUAGAGUGUUAUCUCAGUGCCUGUCUCAUAGUAUAGAAAUGACAAGC: 2.03
UUUAUACUGUAAGUUAUUUUACUUCCCCUGGGACCCUUUCCAGUCCUCGUUUUACAUUCAUUCCUCUUUGGAUUUGCUUUGUGAUUUUGUUGUUGUUGAUGUUGUUGUUG: 1
GAUUUCCUAACAGAAAGAUAUUUUGAUCUAUUUUCCUAUGGAAUUGUUUCUAUUAUUAUCUUUUAAUUUCUUUUUUUAUUUAAUAGUAAUAGCUCCUUUCUCCUUCCUCU: 0.935
AGAAACAAUUUAACAUGUUGAAACGACAAUAUUCUAAAAUACUGAUGAAUCUUGCAUCAAUAUAAUUAUUGGGUUUUUUUUCUUUUUCCUGCUGUAUAACUCCUUGCCAU: 0.326
UGUAGAAGUUGAAAAAUGAUUGCUAUAUUUCAAUGUUUAUUCCCACUCAACAUACUGCCUUCUAAGCUUCCCUUUUUUUGUUCAAAGCAUGAUCUUAAAGAUAUGUUUAA: 1.64
AGGGGUGUUUUUACUGUGUUUUUGUCGUUUCCUUUUUACGUGUGCUGUGAUGAAAGAGAAAAAUGCAGAGUGCCAGUCACUGUGGUGUCUGGGGGAAAUCACCGGGGUUC: 1.58
UAUGCUCAAGAUACUGAAGCUAUCUGUGGUAUUUCAUGUAACAUUUCUAAGAAUAAGAGCUGGCAAAUGGGAAACUUGGGGUGGAGAGAGCAUACUUAUUGGGCUGUGAA: 0.641

Series 4 — technique: RNA Bind-n-Seq; molecule type: RNA; sample: in vitro; tested at: 200 nM; setting: whole 134-nt RNA, ends assumed; together with: 150 mM KCl; relative to: input library; direction: higher = stronger binding; measurement: log2 enrichment
Target: Fragile X messenger ribonucleoprotein 1, C-terminal low-complexity region (Fmr1, Mus musculus, UniProt P35922)
All sequences stand within: GGGAGUUCUACAGUCCGACGAUC … UGGAAUUCUCGGGUGUCAAGG
CCACCAUGACCCCUGACGGUCUGGCUGUGACCCCAACGCCGGUGCCCGUGGUCGGGAGCCAGAUGACCAGACAAGCCCGGCGCCUCUACG: 0.532
AGUCCUGUGCUACACAUCGUAUGUACCGAAUCGGAAAAAAAGGUUUGGAAAAAAAGGAAAGUAUUAUGUUACGCCGUUCGGAUCUGCACU: -1.49
AGUCCUGUGCUACACAUCGUAUGUACCGAAUCGGUUUUUUUGGAAAGGUUUUUUUGGAAAGUAUUAUGUUACGCCGUUCGGAUCUGCACU: -1.34
CAAGUCCUGUGCUACACAUCGUAUGUACCGAAUCGGAAAAAAAGGAAAGGAAAGGAAAGUAUUAUGUUACGCCGUUCGGAUCUGCACUUC: -0.917
UCAAGUCCUGUGCUACACAUCGUAUGUACCGAAUCGGGGUGGGGAGGGGAGGGGAAAGUAUUAUGUUACGCCGUUCGGAUCUGCACUUCC: 1.08
CACAGACAACACGCACUCACACAGACACAGAGGGAAGGGGUUGGGAUGGGGACAGGGUGCACAGCAGGGCGGGGUAGGACCCCAGCCCCU: 1.14
UGUGCUACACAUCGUAUGUACCGAAUCGGGGAAAAAAAGGGGAAAAAAAGGGGAAAAAGGGGAAAGUAUUAUGUUACGCCGUUCGGAUCU: -0.142
AAGUCCUGUGCUACACAUCGUAUGUACCGAAUCGGGGUUUGGGGUUUGGGUUUGGGAAAGUAUUAUGUUACGCCGUUCGGAUCUGCACUU: 0.785
UGGCCCUGGUGGCAUGCGGGGAGUAAGAGGUGGCCUCAUGGAUCGUGGUGGUCCCGGUGGAAUGUUCAGAGGUGGCCGUGGUGGAGACAG: -0.0241
CUCAAGUCCUGUGCUACACAUCGUAUGUACCGAAUCGGUUUGGUGGUUUUUGGAAAGUAUUAUGUUACGCCGUUCGGAUCUGCACUUCCA: 0.00253
